Measurements collected from several papers.
Each line is one published result; not all experiments were run side by side. ± marks the error that the study gave.
Alpha-galactosidase: Alpha-galactosidase (Coffea arabica, UniProt Q42656)
UniProt Q42656, sequence (whole entry, looked up): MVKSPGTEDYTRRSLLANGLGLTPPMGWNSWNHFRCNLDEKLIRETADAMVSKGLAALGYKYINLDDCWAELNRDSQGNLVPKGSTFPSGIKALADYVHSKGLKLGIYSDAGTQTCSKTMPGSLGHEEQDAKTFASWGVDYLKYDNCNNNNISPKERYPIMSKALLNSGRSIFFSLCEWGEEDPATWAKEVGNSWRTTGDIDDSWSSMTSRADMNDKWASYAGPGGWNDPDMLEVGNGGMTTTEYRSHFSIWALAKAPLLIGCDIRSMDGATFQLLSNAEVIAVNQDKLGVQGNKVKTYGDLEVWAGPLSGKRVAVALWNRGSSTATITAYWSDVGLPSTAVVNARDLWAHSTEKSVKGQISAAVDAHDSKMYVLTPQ
BIRC2 BIR3: Baculoviral IAP repeat-containing protein 2, BIR3 (BIRC2, Homo sapiens, UniProt Q13490)
UniProt Q13490, sequence (whole entry, looked up): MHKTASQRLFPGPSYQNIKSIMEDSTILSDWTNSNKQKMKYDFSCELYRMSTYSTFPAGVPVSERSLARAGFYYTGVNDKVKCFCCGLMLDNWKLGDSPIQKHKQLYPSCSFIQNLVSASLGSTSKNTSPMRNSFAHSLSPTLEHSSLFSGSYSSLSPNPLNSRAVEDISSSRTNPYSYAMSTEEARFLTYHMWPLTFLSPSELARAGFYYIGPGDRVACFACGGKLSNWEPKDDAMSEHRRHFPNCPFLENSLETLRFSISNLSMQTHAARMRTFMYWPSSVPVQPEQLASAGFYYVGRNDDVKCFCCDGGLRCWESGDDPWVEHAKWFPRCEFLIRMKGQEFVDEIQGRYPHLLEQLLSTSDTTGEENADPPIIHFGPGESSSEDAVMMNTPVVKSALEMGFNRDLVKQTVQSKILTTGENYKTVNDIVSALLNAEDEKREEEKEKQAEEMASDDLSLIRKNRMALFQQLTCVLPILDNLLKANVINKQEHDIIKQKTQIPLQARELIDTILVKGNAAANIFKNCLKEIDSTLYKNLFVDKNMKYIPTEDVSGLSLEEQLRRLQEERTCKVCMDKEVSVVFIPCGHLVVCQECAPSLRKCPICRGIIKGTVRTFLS
BIRC3 BIR3: Baculoviral IAP repeat-containing protein 3, BIR3 (BIRC3, Homo sapiens, UniProt Q13489)
UniProt Q13489, sequence (whole entry, looked up): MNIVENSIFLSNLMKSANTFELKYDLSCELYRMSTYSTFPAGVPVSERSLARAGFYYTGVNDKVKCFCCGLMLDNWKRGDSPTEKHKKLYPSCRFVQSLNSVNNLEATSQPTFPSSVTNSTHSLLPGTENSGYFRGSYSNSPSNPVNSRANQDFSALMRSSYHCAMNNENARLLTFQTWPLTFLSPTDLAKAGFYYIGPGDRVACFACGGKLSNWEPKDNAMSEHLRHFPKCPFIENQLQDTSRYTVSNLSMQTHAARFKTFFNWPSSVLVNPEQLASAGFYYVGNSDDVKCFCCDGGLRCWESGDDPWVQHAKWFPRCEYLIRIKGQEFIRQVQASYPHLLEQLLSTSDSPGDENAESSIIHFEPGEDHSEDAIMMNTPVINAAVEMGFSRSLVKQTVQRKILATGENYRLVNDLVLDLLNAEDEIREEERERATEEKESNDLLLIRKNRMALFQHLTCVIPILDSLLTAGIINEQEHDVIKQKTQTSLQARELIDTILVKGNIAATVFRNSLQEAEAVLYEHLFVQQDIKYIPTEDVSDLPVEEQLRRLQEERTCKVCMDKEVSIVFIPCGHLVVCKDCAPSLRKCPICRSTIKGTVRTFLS
UniProt P04746, sequence (whole entry, looked up): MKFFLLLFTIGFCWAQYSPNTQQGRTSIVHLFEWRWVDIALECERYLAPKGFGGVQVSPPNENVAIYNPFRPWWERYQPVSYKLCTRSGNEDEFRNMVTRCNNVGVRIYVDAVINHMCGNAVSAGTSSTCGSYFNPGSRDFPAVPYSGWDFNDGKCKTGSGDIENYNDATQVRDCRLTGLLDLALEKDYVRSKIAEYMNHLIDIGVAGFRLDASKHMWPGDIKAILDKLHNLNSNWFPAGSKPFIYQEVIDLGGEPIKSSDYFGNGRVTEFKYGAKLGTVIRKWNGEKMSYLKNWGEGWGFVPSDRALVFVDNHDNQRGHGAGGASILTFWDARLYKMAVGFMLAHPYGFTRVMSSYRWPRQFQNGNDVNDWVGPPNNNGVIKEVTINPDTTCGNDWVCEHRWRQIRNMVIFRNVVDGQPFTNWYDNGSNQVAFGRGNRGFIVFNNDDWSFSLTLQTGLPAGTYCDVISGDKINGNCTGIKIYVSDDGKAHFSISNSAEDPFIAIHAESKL
UniProt P00383, sequence (whole entry, looked up): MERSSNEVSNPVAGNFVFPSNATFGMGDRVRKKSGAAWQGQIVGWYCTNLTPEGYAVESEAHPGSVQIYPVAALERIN
UniProt P55210, sequence (whole entry, looked up): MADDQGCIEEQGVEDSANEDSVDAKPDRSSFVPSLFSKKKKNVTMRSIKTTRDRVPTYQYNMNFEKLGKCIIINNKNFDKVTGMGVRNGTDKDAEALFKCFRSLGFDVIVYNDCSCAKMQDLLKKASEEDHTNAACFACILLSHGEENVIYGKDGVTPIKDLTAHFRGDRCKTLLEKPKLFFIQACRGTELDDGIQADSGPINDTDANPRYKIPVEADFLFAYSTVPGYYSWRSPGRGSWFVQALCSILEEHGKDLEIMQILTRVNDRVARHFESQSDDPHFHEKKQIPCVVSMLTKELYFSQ
UniProt P23280, sequence (whole entry, looked up): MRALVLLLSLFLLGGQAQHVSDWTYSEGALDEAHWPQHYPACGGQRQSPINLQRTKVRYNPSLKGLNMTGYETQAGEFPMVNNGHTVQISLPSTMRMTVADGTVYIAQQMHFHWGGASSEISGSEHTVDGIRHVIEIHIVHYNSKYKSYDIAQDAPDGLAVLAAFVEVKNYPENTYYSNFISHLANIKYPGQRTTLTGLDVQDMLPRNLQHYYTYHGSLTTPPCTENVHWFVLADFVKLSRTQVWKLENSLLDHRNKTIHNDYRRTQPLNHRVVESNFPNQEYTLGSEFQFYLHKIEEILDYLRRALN
UniProt O00187, sequence (whole entry, looked up): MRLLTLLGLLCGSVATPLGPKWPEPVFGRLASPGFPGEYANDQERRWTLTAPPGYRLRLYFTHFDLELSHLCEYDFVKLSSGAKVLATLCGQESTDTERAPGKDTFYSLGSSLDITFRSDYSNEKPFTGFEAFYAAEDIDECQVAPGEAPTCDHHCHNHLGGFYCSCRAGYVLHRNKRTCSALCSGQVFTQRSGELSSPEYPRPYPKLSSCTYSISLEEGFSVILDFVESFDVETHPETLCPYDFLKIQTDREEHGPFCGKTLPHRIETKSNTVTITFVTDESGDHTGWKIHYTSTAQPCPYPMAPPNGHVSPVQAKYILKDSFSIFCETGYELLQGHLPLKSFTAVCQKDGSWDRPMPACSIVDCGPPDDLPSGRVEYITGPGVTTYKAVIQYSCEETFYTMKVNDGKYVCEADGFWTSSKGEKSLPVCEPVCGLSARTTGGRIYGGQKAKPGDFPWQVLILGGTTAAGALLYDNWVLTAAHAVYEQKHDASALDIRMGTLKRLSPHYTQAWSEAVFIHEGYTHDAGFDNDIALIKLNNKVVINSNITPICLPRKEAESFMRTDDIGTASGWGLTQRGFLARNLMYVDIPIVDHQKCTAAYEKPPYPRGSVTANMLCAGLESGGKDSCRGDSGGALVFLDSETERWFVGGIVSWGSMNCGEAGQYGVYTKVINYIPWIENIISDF
UniProt O96013, sequence (whole entry, looked up): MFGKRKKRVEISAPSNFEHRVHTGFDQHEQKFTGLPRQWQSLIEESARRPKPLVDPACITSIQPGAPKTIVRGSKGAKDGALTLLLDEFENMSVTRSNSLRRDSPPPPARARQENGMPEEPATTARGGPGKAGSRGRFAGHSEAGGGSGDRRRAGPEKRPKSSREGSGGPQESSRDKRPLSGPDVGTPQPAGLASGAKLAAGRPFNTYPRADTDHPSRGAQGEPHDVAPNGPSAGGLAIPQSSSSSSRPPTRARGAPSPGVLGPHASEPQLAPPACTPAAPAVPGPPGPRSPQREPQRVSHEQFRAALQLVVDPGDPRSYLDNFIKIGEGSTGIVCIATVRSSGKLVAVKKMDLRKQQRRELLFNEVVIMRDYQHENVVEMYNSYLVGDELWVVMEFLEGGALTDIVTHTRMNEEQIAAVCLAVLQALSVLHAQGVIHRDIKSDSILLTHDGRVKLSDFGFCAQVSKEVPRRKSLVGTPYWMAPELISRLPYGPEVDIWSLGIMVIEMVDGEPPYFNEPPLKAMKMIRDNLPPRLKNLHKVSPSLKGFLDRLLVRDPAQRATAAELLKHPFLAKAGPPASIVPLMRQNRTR

| Structure (SMILES) | target | test | setting | Ki |
| --- | --- | --- | --- | --- |
| CCCCN1[C@H](CCC)[C@H](O)[C@@H](O)[C@H](O)[C@H]1CO | Alpha-galactosidase | enzyme activity, competitive inhibitor | green coffee bean enzyme, optimal pH, together with: p-nitrophenyl glycopyranoside | > 2000 µM |
| CN[C@@H](C)C(=O)N[C@H]1CN(C(=O)Cc2ccccc2)CC[C@H]2CC[C@@H](C(=O)NCc3ccc(C(C)(C)C)cc3)N2C1=O | BIRC2 BIR3 | ligand displacement, FP |  | 0.236 µM |
| CN(C)c1ccc2c3c(cccc13)C(=O)N(CCS)C2=O | VIM-2 (Escherichia coli, UniProt Q5U7L7) | enzyme activity, inhibitor | Km 8 µM, together with: chromacef 25 µM | 0.027 ± 0.001 µM |
| CCCCCCCCN1[C@H](CCC)[C@H](O)[C@@H](O)[C@H](O)[C@H]1CO | Alpha-galactosidase | enzyme activity, inhibitor, absorbance |  | 130 µM |
| CC(=O)NCC(=O)N[C@@H](CCC(=O)O)C(=O)N[C@@H](CO)C(=O)N1CCC[C@H]1C(=O)N[C@H](C=O)CC(=O)O | Caspase-7 (CASP7, Homo sapiens, UniProt P55210) | enzyme activity, inhibitor, fluorescence | pH 7 | 1.91 µM |
| O=C(O)c1ccc2nc(-c3ccc(OCCCCOc4ccc(-c5nc6ccc(C(=O)O)cc6[nH]5)cc4)cc3)[nH]c2c1 | Dihydrofolate reductase type 2 (Escherichia coli, UniProt P00383) | enzyme activity, inhibitor | pH 7 | 1.9 ± 0.3 µM |
| OB(O)c1cnn(-c2cccc(Cl)c2)c1 | Chymotrypsinogen A (Bos taurus, UniProt P00766) | enzyme activity, inhibitor, absorbance |  | 0.3 µM |
| C[C@H]1CN(C(=O)c2nc(Nc3cc(C4CC4)[nH]n3)c3cc(Cl)ccc3n2)CCN1 | PAK4 (Homo sapiens, UniProt O96013) | cell-free assay, inhibitor, TR-FRET |  | 0.005 µM |
| COCCOc1cc2ncnc(Nc3cccc(-c4cn([C@H]5C[C@H](n6cc(C)c(=O)[nH]c6=O)O[C@@H]5CO)nn4)c3)c2cc1OCCOC | CA6 (Homo sapiens, UniProt P23280) | enzyme activity, inhibitor, stopped-flow |  | 0.103 µM |
| CN[C@@H](C)C(=O)N[C@H]1CN(C(=O)Cc2ccccc2)CC[C@H]2CC[C@@H](C(=O)NCc3ccc(C(N)=O)cc3)N2C1=O | BIRC3 BIR3 | ligand displacement, FP |  | 0.539 µM |
| O=C(Nc1cccc(-c2nn[nH]n2)c1)c1cc(-n2ccnc2)cc(C(F)(F)F)c1 | Beta-lactamase CTX-M-27 (Escherichia coli, UniProt Q840M4) | enzyme activity, inhibitor, absorbance | pH 7 | 3.63 µM |
| CN[C@@H](C)C(=O)N[C@H]1CN(C(=O)Cc2ccccc2)CC[C@H]2CC[C@@H](C(=O)NCc3ccc(F)cc3)N2C1=O | BIRC3 BIR3 | ligand displacement, FP |  | 0.0049 µM |
| CC[C@H](C)[C@H](NC(=O)[C@@H]1CSSC[C@H](NC(=O)[C@H](Cc2ccc(O)cc2)NC(=O)CN)C(=O)N[C@@H](CO)C(=O)N[C@@H](CCCNC(=N)N)C(=O)N[C@@H](CO)C(=O)N[C@@H](Cc2ccc(O)cc2)C(=O)N2CCC[C@H]2C(=O)N2CCC[C@H]2C(=O)N[C@@H](C(C)C)C(=O)N1)C(=O)N1CCC[C@H]1C(=O)N[C@@H](CC(=O)O)C(=O)O | Mannan-binding lectin serine protease 2 (Homo sapiens, UniProt O00187) |  | together with: 250 µM Z-L-Lys-SBzl substrate | 0.3 ± 0.01 µM |
| CN[C@@H](C)C(=O)N[C@H]1CN(C(=O)Cc2ccccc2)CC[C@H]2CC[C@@H](C(=O)NCc3ccc(-c4ccccc4)cc3)N2C1=O | BIRC2 BIR3 | ligand displacement, FP |  | 0.167 µM |
| C[C@@H]1O[C@@H](Oc2c(-c3cc(O)c(O)c(O)c3)oc3cc(O)cc(O)c3c2=O)[C@H](O[C@@H]2O[C@H](COC(=O)/C=C/c3ccc(O)c(O)c3)[C@@H](O)[C@H](O)[C@H]2O)[C@H](O)[C@H]1O | Pancreatic alpha-amylase (Homo sapiens, UniProt P04746) |  |  | 0.4 µM |

A few entries again:
| Structure (SMILES) | target | test | setting | Ki |
| --- | --- | --- | --- | --- |
| CN[C@@H](C)C(=O)N[C@H]1CN(C(=O)Cc2ccccc2)CC[C@H]2CC[C@@H](C(=O)NCc3ccc(C(C)(C)C)cc3)N2C1=O | BIRC2 BIR3 | ligand displacement, FP |  | 0.236 µM |
| CN(C)c1ccc2c3c(cccc13)C(=O)N(CCS)C2=O | VIM-2 (Escherichia coli, UniProt Q5U7L7) | enzyme activity, inhibitor | Km 8 µM, together with: chromacef 25 µM | 0.027 ± 0.001 µM |
